Results gathered from unrelated publications.
Numbered parts are unrelated; each lists some results of a single study.

Study 1 — method: protein-binding microarray; form: double-stranded DNA, one strand shown; sample: in vitro; tested at: 2540 nM top; setting: 60-bp whole probe; together with: salmon DNA 0.4 mg/ml; reference: random background probes; direction: higher = stronger binding; constant ends, left off below: GCCTAGCAC … GTCTTGATTCGCTTGACGCTGCTG
Target: Interferon regulatory factor 3, full length, phosphomimetic (IRF3, Homo sapiens, UniProt Q14653, residues 1-427, S386D/S396D/S398D/S402D/T404D/S405D)
UniProt Q14653, sequence (whole entry, unmodified, looked up): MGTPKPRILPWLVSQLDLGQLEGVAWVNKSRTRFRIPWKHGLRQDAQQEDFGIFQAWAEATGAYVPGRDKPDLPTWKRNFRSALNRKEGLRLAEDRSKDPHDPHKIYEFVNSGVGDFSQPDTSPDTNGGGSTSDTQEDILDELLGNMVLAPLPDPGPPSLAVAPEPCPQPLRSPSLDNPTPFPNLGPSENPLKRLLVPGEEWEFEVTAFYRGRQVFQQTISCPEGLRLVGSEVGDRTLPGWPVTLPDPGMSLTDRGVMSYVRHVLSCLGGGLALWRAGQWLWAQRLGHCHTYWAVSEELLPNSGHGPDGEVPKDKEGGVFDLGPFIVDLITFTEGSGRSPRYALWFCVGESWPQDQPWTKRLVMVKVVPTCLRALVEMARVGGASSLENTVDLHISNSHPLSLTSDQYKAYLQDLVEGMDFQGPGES
Under “fitted relative affinity”, `TCATCAACCAGTTTTCTTACTGTGCTA` is recorded as 0.628 z-score.
`TTAGATATCGGGTTACGATTAGTGCTA` — result for “fitted relative affinity”: 0.344 z-score.
`TTAGGACCGGGTATCGGTTAGTGCTAG` — result for “fitted relative affinity”: 0.709 z-score.
`GACGGTTTCGGACTGGGGCCGTGCTAG`: “fitted relative affinity” 4.24 z-score.
For `TTAGGACTGCTACTCCTTTAGTGCTAG`, “fitted relative affinity” read -0.444 z-score.

Study 2 — method: protein binding microarray; form: double-stranded DNA, one strand shown; sample: in vitro; tested at: not given; reference: not given; direction: higher = stronger binding
Target: Histone acetyltransferase KAT6A, both winged helices, GST fusion (KAT6A, Homo sapiens, UniProt Q92794, residues 1-181)
Setting: 8-mer, flanks averaged, mean of 2 arrays, mostly near background
Construct (chain): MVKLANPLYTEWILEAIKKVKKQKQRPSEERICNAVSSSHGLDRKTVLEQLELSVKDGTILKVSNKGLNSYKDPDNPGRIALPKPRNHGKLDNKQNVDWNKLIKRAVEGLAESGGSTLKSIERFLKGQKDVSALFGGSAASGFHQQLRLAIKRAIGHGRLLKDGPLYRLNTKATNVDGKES
`CTGTTTTC` has an E-score of 0.0358.
`ATATGCAA` has an E-score of 0.0123.
With `ACTCACCA` the E-score was -0.22.
`GTTGTAGA` has an E-score of -0.117.
`TTCGCAAA` has an E-score of 0.00299.
`TCAACTAA` gave an E-score of -0.187.

Study 3 — method: universal PBM; form: double-stranded DNA, one strand shown; sample: in vitro; tested at: 600 nM; direction: higher = stronger binding
Target: Sal-like protein 4, full length isoform A (SALL4, Homo sapiens, UniProt Q9UJQ4, residues 1-1053)
UniProt Q9UJQ4, sequence (whole entry, looked up): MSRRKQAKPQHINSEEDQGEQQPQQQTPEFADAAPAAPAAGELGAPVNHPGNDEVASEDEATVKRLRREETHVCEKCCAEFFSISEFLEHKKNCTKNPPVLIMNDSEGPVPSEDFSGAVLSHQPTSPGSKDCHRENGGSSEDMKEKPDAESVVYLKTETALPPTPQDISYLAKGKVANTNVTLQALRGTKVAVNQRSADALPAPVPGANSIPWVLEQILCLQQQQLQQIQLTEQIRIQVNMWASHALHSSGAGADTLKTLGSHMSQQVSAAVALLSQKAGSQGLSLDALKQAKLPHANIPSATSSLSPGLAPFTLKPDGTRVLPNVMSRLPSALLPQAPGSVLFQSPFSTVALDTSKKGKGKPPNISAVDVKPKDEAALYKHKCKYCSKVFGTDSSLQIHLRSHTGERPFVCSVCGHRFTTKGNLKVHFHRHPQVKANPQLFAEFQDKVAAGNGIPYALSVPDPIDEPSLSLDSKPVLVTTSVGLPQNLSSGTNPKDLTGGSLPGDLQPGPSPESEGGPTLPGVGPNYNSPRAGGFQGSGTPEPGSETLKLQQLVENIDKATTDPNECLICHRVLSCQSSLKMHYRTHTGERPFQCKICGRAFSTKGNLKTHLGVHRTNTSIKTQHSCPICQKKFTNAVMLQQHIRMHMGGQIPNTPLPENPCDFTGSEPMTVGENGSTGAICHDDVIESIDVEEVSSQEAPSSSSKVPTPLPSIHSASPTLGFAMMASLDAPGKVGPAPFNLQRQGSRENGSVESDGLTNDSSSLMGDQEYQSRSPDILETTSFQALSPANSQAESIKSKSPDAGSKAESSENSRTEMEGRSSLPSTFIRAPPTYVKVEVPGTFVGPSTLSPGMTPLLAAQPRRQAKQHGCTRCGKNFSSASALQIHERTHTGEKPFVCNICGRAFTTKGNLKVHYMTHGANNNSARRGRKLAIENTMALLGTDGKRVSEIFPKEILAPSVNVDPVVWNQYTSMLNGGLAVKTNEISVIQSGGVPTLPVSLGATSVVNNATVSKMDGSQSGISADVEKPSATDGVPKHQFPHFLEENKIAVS
Setting: 8-mer, flanks averaged, mean of replicates
For `AGCGCCCG`, the E-score was -0.313.
For `CCCCTCAA`, the E-score was -0.153.
`GATCGAGA` has an E-score of -0.055.
`AGGCAACC` gave an E-score of -0.128.
`ATAAGCGG` gave an E-score of 0.138.

Other studies, line by line
For `PhoQ, residues 284 288 289 292 302 303 AQGLTV`, the fold induction was 12.4 (PhoP, residues 12 14 15 18 19 SFCSL (Escherichia coli, UniProt P23836); Sort-seq, item: YFP reporter; E. coli; PhoQ-PhoP variant library, together with: 10 µM Mg2+; reference: high Mg2+ state, higher = stronger signaling).

A few entries again (study 3):
`GATCGAGA` has an E-score of -0.055.
